Measured values of several laboratories.
± gives the spread as reported.

SMILES = O=C(N1CCCC1)n1cc(-c2ccc(-c3ccccc3)cc2)nn1; target = Isoamyl acetate-hydrolyzing esterase 1 homolog (Iah1, Mus musculus, UniProt Q9DB29); assay = probe labelling, inhibitor, competitive ABPP-SILAC, refers to: Iah1; system = mouse T cells; setting = concentration not given, 4 h, protein level; scale = relative to: treated over DMSO cells, lower = stronger inhibition; measurement = SILAC activity ratio; value = 1.27
SMILES = COC(=O)C1(C)C=C(C(=O)OC(C)(C)C)C(=O)CC1 (stereo not shown); target = Mitogen-activated protein kinase 8 (MAPK8, Homo sapiens, UniProt P45983); assay = D-peptide binding, inhibitor, FP peptide displacement; setting = 500 µM; scale = lower is stronger displacement; measurement = fraction bound; value = 0.135
SMILES = CC[C@H](C)[C@@H]1NC(=O)[C@H](Cc2c[nH]c3ccccc23)NC(=O)[C@H](Cc2ccccc2)N(C)C(=O)[C@H](C(C)C)NC(=O)[C@H](CC(C)C)NC(=O)[C@H](Cc2ccccc2)NC(=O)CSC[C@@H](C(=O)N[C@@H](CC(N)=O)C(N)=O)NC(=O)[C@H](Cc2ccccc2)NC1=O; target = Stimulator of interferon genes protein (STING1, Homo sapiens, UniProt Q86WV6, H232R); assay = thermal stability, DSF; setting = 100 µM; measurement = ΔTm; value = 2.72 °C
SMILES = CCOC(=O)[C@](CC)(CCCSCCOCCOCCNC(=O)c1ccc(C(=O)[O-])c(C2=C3C=CC(=[N+](C)C)C=C3[Si](C)(C)c3cc(N(C)C)ccc32)c1)NC(=O)c1ccc(C2CC2)c(Cc2ccc(F)cc2)n1; target = Cannabinoid receptor 2 (Cnr2, Mus musculus, UniProt P47936); assay = cAMP, agonist; measurement = Emax; value = 93%
SMILES = CCC1(CC)C(=O)N(c2cccc(CN3CCN(Cc4ccc(C)c5ccccc45)CC3)c2)C1=O.O=C(O)C(F)(F)F; target = Dipeptidyl peptidase 8 (Homo sapiens, UniProt Q6V1X1); assay = enzyme activity, inhibitor; setting = 5 µM; measurement = activity vs control; value = 12%
SMILES = N#CN1CC[C@H](C(=O)Nc2nc3c(s2)CN(C(=O)Cn2cc(CNC(=O)CCCC[C@@H]4SC[C@@H]5NC(=O)N[C@@H]54)nn2)CC3)C1; target = Isochorismatase domain-containing protein 1 (Homo sapiens, UniProt Q96CN7); assay = probe binding, affinity probe, neutravidin pull-down LC-MS/MS; system = HEK293T, cell lysate; setting = 5 µM, 1 h, mean of three replicates, unit not given; scale = higher = more pulled down; measurement = iBAQ abundance; value = 1.79e+08
SMILES = Cc1ncsc1-c1ccc(CNC(=O)[C@@H]2C[C@@H](O)CN2C(=O)[C@@H](NC(=O)COCC(C)(COCCOCCOCCNC(=O)C[C@@H]2N=C(c3ccc(Cl)cc3)c3c(sc(C)c3C)-n3c(C)nnc32)COCCOCCOCCNC(=O)C[C@@H]2N=C(c3ccc(Cl)cc3)c3c(sc(C)c3C)-n3c(C)nnc32)C(C)(C)C)cc1; target = von Hippel-Lindau disease tumor suppressor, with Elongin B/C (VHL, Homo sapiens, UniProt P40337); assay = binding, SPR multi-cycle kinetics; setting = binary complex VCB; measurement = % Rmax; value = 52 ± 3%
SMILES = CC(C=CC=C(C)C=CC1=C(C)CCCC1(C)C)=CC=O; target = Rhodopsin (RHO, Homo sapiens, UniProt P08100, E181K); assay = immunostaining, refers to: opsin; system = COS-7 transfected; setting = 30.00 µM, unit not given; scale = relative to: surface over total stained cells; measurement = plasma membrane localization; value = 0.83
SMILES = CCCCCC(O)/C=C/C=O (stereo not shown); target = TBC1 domain family member 13 (TBC1D13, Homo sapiens, UniProt Q9NVG8); assay = competitive isoTOP-ABPP; system = Ramos soluble proteome; setting = 100 µM, 60 min, with: iodoacetamide probe; scale = relative to: DMSO over compound-treated, higher = stronger cysteine blockade; measurement = isoTOP-ABPP competition ratio; value = 1.3
SMILES = CN(C)C/C=C/C(=O)Nc1ccc2nc(NCCCCCN(C)C)nc(NCCCCCCN(C)C)c2c1; target = Histone-lysine N-methyltransferase SETD2 (SETD2, Homo sapiens, UniProt Q9BYW2); assay = methyltransferase activity, radiometric; measurement = Hill slope; value = -2
SMILES = CC(=O)N[C@H]1[C@H]([C@H](O)[C@H](O)CNC(=O)c2ccc(-c3ccccc3)cc2)O[C@@](OCc2cn(CC(O)Cn3c([N+](=O)[O-])cnc3C)nn2)(C(=O)O)C[C@@H]1O (stereo partly shown); target = B-cell receptor CD22 (CD22, Homo sapiens, UniProt P20273); assay = ITC; measurement = ΔG; value = -7.18 ± 0.13 kcal/mol
SMILES = Cc1cc(C)cc(COc2cc3c(cc2OCc2cc(C)cc(C)c2)C2CC(O)(Cc4cn(CCOCCOCCNC(=O)CCCCC5SCC6NC(=O)NC65)nn4)CC(C)N2CC3)c1 (stereo not shown); target = Importin subunit beta-1 (KPNB1, Homo sapiens, UniProt Q14974); assay = biotinylated probe pull-down; setting = 10 µM probe; scale = relative to: heavy over light; measurement = SILAC ratio; value = 3.2
SMILES = O=C1c2sc(-c3ccc(N4CCC(CO)CC4)nc3F)nc2CCN1c1cccnc1; target = Histamine H3 receptor (HRH3, Homo sapiens, UniProt Q9Y5N1); assay = ligand displacement, radioligand; setting = 1 µM; measurement = inhibition; value = 3%

Some of these lines once more:
SMILES = COC(=O)C1(C)C=C(C(=O)OC(C)(C)C)C(=O)CC1 (stereo not shown); target = Mitogen-activated protein kinase 8 (MAPK8, Homo sapiens, UniProt P45983); assay = D-peptide binding, inhibitor, FP peptide displacement; setting = 500 µM; scale = lower is stronger displacement; measurement = fraction bound; value = 0.135
SMILES = CCC1(CC)C(=O)N(c2cccc(CN3CCN(Cc4ccc(C)c5ccccc45)CC3)c2)C1=O.O=C(O)C(F)(F)F; target = Dipeptidyl peptidase 8 (Homo sapiens, UniProt Q6V1X1); assay = enzyme activity, inhibitor; setting = 5 µM; measurement = activity vs control; value = 12%
